Measurements from different studies.
Every numbered part comes from another study and shows a few of its results, in no order.

Series 1 — technique: protein-binding microarray; form: double-stranded DNA, one strand shown; medium: in vitro; tested at: 2540 nM top; notes: 60-bp whole probe; added: salmon DNA 0.4 mg/ml; reference: random background probes; direction: higher = stronger binding; shared flanks, not repeated: GCCTAGCAC … GTCTTGATTCGCTTGACGCTGCTG
Target: Interferon regulatory factor 3, full length, phosphomimetic (IRF3, Homo sapiens, UniProt Q14653, residues 1-427, S386D/S396D/S398D/S402D/T404D/S405D)
Target sequence (chain): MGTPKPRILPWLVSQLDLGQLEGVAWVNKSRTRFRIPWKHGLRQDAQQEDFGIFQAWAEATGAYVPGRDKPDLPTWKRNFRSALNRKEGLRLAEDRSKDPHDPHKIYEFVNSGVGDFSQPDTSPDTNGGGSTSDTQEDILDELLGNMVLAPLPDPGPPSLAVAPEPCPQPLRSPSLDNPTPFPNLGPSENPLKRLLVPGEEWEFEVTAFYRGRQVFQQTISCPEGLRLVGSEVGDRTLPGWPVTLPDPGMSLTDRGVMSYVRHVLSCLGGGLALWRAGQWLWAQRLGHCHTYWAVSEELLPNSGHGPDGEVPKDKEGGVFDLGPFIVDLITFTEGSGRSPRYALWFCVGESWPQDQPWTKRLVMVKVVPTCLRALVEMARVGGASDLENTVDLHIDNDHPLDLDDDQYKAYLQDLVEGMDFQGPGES
Strand | fitted relative affinity
GACGGTTTCGACTTTCGTGACGTGCTA | 3.7 z-score
TTAGGTTTCGGTTCCGCTTAGTGCTAG | 10.7 z-score
TTAGGTATCGGTCTCGGTTGGTGCTAG | 4.25 z-score
GACGGTATCGAGTATCGGGACGTGCTA | 0.98 z-score
GACGAACTGGGGTCTGGAGACGTGCTA | -0.716 z-score

Series 2 — technique: aptamer microarray, sandwich; form: DNA with 2'F-ANA; medium: in vitro; tested at: 200 nM; added: Cy3 exosite-II aptamer, 400 nM; direction: higher = stronger binding; strand: GGTTGGTGTGGTTGG
Target: Prothrombin, mature alpha-thrombin (F2, Homo sapiens, UniProt P00734)
Notes: whole 15-mer aptamer, many near background
Modification | mean fluorescence intensity [a.u.]
2'F-ANA at 6 7 10 14 | 137
2'F-ANA at 4 5 6 8 9 11 13 14 | 45
2'F-ANA at 2 4 8 9 10 11 12 13 | 102
2'F-ANA at 1 2 3 5 6 8 10 11 12 | 50.2
2'F-ANA at 3 4 5 6 8 9 10 11 14 | 47.1
2'F-ANA at 2 5 6 7 8 10 13 15 | 45.9

Series 3 — technique: RNA Bind-n-Seq; form: RNA; medium: in vitro; tested at: 1 µM; notes: whole 134-nt RNA, ends assumed; added: 150 mM KCl; reference: input library; direction: higher = stronger binding
Target: Ras GTPase-activating protein-binding protein 1, RRM domain (G3BP1, Homo sapiens, UniProt Q13283)
UniProt Q13283, sequence (whole entry, looked up): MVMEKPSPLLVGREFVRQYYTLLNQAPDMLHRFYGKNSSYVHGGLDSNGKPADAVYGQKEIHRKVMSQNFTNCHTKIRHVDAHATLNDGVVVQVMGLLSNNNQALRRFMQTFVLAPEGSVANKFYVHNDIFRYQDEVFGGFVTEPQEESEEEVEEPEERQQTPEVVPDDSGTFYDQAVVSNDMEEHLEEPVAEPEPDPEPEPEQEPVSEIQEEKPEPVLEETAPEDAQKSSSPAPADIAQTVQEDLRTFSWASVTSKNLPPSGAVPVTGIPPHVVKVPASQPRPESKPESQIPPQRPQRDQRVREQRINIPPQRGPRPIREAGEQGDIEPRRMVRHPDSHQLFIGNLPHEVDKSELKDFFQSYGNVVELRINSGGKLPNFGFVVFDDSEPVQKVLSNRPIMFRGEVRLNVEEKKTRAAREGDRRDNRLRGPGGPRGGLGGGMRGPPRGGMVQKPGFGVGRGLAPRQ
Strand | log2 enrichment
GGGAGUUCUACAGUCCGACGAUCUGGGAGGUGGAUGUUGUUUAUUUUUUUAGCUCAUUUCCAGGGGUGGGAAUUUUUUUUUAAUAUGUGUCAUGAAUAAAGUUGUUUUUGAAAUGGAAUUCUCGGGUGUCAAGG | 1.45
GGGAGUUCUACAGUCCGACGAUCAGUCCUGUGCUACACAUCGUAUGUACCGAAUCGGGGAAAAGGGAAAAGGGAAAAGGGGAAAGUAUUAUGUUACGCCGUUCGGAUCUGCACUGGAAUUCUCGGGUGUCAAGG | 0.612
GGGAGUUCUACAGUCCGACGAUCUCAAGUCCUGUGCUACACAUCGUAUGUACCGAAUCGGUUUUUGGAGGAAAAAGGAAAGUAUUAUGUUACGCCGUUCGGAUCUGCACUUCCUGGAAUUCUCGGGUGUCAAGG | -0.2
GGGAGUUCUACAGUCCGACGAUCUGGCCCUGGUGGCAUGCGGGGAGGAAGAGGUGGCCUCAUGGAUCGUGGAGGUCCCGGUGGAAUGUUCAGAGGUGGCCGUGGUGGAGACAGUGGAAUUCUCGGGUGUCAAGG | -0.00379
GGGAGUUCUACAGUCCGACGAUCCAAGUCCUGUGCUACACAUCGUAUGUACCGAAUCGGCCCGGGCCCGGGGCCCGGGGAAAGUAUUAUGUUACGCCGUUCGGAUCUGCACUUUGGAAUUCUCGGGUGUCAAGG | -0.758

Mixed results
Molecule | target | assay | test system | setting | how to read | quantity | value
PhoQ, residues 284 288 289 292 302 303 GANMMA | PhoP, residues 12 14 15 18 19 NHFRA (Escherichia coli, UniProt P23836) | Sort-seq, refers to: YFP reporter | E. coli | PhoQ-PhoP variant library, added: 10 µM Mg2+ | reference: high Mg2+ state, higher = stronger signaling | fold induction | 1.48
